Measured values gathered from unrelated publications.
Compare with care: the assays were run in different laboratories. Values joined by “and” are separate records of one study, mostly repeats; a detail may differ. ± marks the error that the study gave.
WD repeat-containing protein 91 WD40 domain, residues 392–747: WD repeat-containing protein 91, WD40 domain, residues 392–747 (Homo sapiens, UniProt A4D1P6)
Chain of UniProt A4D1P6 (whole entry, looked up): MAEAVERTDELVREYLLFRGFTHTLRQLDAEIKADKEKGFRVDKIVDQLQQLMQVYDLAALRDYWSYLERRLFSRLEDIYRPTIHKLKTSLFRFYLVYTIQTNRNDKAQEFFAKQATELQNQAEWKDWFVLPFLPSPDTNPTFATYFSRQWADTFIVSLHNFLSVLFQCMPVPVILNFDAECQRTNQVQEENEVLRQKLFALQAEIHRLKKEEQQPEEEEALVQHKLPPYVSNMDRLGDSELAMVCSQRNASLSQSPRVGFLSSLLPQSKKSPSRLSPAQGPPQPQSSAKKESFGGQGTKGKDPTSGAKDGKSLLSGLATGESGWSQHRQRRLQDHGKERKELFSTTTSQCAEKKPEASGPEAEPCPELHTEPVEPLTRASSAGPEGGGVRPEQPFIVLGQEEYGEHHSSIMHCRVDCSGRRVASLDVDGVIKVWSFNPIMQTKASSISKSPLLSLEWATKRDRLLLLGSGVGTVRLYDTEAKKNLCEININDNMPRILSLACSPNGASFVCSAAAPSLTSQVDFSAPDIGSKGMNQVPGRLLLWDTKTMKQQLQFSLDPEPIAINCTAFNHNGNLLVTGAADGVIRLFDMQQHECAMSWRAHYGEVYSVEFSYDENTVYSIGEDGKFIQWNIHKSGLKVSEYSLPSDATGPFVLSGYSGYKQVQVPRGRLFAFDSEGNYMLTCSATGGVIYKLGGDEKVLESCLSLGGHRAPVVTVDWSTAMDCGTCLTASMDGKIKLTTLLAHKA
Genome polyprotein NS3 helicase domain: Genome polyprotein, NS3 helicase domain (Hepatitis C virus genotype 1b, UniProt Q9WMX2)
ESR1: Estrogen receptor (ESR1, Homo sapiens, UniProt P03372)
Chain of UniProt P18669 (whole entry, looked up): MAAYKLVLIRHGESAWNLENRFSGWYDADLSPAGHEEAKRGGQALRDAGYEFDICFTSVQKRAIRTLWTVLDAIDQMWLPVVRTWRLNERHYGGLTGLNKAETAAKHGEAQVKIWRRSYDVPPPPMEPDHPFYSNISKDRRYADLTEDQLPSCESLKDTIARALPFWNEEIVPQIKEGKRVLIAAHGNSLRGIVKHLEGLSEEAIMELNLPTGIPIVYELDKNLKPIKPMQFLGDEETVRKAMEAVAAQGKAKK
Chain of UniProt P51575 (whole entry, unmodified, looked up): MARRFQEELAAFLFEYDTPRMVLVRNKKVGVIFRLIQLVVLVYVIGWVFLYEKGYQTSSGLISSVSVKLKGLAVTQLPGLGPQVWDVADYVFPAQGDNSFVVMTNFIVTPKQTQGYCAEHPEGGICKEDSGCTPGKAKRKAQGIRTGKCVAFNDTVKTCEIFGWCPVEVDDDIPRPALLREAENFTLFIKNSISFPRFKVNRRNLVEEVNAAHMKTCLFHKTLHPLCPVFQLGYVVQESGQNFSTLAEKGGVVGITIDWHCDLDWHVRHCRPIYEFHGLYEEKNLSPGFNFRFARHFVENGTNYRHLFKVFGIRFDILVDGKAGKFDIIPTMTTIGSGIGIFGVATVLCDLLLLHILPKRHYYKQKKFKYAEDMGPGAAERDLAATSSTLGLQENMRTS
Chain of UniProt P03372 (whole entry, looked up): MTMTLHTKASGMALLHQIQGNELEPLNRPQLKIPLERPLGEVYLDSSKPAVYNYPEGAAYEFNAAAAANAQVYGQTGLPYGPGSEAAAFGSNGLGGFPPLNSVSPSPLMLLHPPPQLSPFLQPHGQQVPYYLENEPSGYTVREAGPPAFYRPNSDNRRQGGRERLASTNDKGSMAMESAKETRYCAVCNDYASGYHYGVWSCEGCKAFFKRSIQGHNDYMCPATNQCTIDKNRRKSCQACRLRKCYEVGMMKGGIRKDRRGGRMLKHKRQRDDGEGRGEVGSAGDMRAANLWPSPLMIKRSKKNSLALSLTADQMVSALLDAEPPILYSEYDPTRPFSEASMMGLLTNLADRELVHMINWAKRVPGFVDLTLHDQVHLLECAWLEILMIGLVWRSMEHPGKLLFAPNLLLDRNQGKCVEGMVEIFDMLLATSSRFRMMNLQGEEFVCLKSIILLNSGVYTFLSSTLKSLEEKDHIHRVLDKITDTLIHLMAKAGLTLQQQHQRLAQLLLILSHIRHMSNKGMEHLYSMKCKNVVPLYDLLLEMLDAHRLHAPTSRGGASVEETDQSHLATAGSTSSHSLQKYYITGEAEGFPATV
Chain of UniProt Q9NYV4 (whole entry, looked up): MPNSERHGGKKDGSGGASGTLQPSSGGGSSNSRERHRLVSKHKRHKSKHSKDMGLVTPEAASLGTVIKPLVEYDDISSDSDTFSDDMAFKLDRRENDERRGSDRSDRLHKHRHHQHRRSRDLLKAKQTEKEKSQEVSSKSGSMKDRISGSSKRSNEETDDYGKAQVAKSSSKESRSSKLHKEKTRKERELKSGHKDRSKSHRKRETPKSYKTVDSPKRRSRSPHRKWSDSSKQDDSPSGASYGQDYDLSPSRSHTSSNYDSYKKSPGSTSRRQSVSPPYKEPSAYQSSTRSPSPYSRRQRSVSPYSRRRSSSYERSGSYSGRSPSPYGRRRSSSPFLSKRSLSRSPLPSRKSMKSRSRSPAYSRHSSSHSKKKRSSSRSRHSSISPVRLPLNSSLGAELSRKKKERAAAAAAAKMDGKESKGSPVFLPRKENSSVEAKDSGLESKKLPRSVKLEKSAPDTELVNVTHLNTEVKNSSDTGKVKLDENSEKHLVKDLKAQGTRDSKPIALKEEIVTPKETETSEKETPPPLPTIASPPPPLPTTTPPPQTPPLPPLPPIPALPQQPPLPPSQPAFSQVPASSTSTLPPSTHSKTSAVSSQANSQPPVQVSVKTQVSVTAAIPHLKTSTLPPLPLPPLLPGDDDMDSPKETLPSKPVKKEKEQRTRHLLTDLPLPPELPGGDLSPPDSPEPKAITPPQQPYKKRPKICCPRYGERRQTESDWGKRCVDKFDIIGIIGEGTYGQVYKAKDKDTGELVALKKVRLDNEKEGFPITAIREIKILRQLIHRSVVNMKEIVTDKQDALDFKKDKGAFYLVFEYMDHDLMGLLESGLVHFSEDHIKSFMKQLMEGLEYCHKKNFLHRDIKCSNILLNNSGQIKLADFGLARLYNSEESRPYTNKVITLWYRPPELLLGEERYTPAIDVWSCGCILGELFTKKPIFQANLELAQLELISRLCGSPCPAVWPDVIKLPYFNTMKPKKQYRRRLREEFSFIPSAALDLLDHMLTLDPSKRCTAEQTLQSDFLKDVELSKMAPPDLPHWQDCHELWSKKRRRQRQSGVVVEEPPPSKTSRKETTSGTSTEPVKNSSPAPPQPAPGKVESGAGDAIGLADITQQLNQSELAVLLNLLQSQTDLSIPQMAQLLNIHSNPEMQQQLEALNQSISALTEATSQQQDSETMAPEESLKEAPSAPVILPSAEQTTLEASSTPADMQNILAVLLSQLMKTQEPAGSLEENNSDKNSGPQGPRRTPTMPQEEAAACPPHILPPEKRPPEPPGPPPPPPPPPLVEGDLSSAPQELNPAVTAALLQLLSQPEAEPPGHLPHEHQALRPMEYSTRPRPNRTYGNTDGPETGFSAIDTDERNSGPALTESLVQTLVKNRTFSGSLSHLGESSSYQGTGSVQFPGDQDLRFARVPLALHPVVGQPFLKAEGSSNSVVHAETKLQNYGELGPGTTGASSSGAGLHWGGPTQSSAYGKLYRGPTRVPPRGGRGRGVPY
Chain of UniProt P21554 (whole entry, looked up): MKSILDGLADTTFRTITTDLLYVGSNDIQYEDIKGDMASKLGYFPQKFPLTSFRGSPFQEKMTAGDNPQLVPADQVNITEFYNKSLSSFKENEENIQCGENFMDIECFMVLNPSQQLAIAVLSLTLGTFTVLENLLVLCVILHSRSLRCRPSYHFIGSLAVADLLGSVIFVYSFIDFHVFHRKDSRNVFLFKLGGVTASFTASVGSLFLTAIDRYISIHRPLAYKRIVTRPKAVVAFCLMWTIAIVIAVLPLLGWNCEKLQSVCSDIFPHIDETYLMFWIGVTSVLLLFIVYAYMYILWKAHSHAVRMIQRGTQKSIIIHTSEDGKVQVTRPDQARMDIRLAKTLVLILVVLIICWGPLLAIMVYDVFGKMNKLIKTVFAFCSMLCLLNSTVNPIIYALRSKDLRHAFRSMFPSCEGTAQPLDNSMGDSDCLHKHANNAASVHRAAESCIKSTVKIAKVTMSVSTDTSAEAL
Chain of UniProt Q01469 (whole entry, looked up): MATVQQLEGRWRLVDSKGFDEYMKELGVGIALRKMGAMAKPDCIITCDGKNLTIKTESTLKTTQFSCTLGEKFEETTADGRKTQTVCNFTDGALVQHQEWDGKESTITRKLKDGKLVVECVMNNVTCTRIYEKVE
Chain of UniProt O14730 (whole entry, looked up): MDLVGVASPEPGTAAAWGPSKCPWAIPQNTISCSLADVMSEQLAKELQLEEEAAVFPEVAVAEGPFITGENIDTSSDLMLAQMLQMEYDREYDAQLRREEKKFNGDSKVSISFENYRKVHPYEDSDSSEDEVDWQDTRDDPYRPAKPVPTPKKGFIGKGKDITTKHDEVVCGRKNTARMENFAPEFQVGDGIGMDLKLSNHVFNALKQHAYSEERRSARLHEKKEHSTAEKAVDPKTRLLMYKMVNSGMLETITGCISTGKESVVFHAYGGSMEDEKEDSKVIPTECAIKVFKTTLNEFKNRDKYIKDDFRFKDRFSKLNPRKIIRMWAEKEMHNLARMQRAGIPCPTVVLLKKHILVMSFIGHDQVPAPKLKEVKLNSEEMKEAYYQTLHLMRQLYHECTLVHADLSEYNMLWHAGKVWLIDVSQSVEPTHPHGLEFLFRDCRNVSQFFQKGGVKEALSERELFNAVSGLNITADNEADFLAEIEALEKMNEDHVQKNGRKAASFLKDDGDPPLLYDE
Chain of UniProt P35462 (whole entry, looked up): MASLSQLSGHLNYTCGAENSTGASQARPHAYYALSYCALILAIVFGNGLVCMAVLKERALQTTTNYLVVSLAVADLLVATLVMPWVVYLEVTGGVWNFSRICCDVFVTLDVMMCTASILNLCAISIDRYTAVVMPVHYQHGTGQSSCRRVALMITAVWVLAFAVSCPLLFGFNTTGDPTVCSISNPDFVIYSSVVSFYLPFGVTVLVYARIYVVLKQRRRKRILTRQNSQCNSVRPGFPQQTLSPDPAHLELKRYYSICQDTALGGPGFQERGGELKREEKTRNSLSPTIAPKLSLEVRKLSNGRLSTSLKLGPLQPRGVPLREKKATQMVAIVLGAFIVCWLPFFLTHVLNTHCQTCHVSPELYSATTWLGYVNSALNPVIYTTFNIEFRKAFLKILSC

CC[C@H](C)[C@H](NC(=O)[C@H](CCSC)NC(=O)[C@H](CCSC)NC(=O)[C@H](C)NC(=O)[C@H](C)NC(=O)[C@H](Cc1ccc(O)cc1)NC(=O)[C@H](C)NC(=O)[C@H](CCCCN)NC(=O)CNC(=O)[C@@H](NC(=O)[C@@H](NC(=O)[C@H](CCSC)NC(=O)[C@H](Cc1c[nH]cn1)NC(=O)CN)[C@@H](C)O)C(C)C)C(=O)N[C@@H](CCSC)C(=O)N[C@@H](CCC(=O)O)C(=O)N[C@@H](Cc1ccc(O)cc1)C(=O)N[C@@H](Cc1ccc(O)cc1)C(=O)N[C@@H](CCCNC(=N)N)C(=O)N[C@@H](CCC(N)=O)C(=O)N[C@@H](CO)C(=O)N[C@@H](CCCCN)C(=O)N[C@@H](C)C(=O)N[C@@H](CCCCN)C(=O)N[C@@H](CCCCN)C(=O)N[C@@H](CC(C)C)C(=O)N[C@@H](CCC(N)=O)C(=O)N[C@@H](C)C(=O)N[C@@H](CCSC)C(=O)N[C@@H](CCCNC(=N)N)C(=O)O
ΔH (Calmodulin-1, Ca2+-bound N-lobe (CALM1, Homo sapiens, UniProt P0DP23); binding, isothermal titration calorimetry; pH 7.4, 15 °C, N-lobe, CaV2.1 IQ domain, with: Ca2+): -4.15 ± 0.05 kcal/mol

Cn1cc(-n2cnc3c(NCc4nc5cc(Cl)c(Cl)cc5[nH]4)nc(N4CCOCC4)nc32)cn1
inhibition (Cyclin-dependent kinase 12, with cyclin K (CDK12, Homo sapiens, UniProt Q9NYV4); kinase activity, inhibitor, ADP-Glo; 0.0001 µM): 14.7%

N#Cc1cccc2c1CC[C@H]2NC(=O)c1ccc(S(=O)(=O)NCc2ccco2)cc1
SPR response (WD repeat-containing protein 91 WD40 domain, residues 392–747; binding, SPR single-concentration screen; 45 µM): 24.8 RU and 21.3 RU

Cc1[nH]c(C)c(S(=O)(=O)Nc2ccc(C(F)(F)F)c(Cl)c2)c1C(=O)N1CCC(F)(F)C1
cooperativity factor α (DRD3 (Homo sapiens, UniProt P35462); allosteric modulator, ternary complex model; with: dopamine, [3H]methylspiperone): 4.6

Nc1ccn([C@H]2C[C@H](O)[C@@H](COP(=O)(O)OP(=O)(O)OP(=O)(O)O)O2)c(=O)n1
Km (POLL (Homo sapiens, UniProt Q9UGP5, Y505A); substrate, primer extension gel; Y505A mutant, AP-site template): 0.03 µM

N#Cc1cccc2c1CC[C@H]2NC(=O)c1ccc(Nc2ncnc3ccccc23)cc1
binding (WD repeat-containing protein 91, residues 392–747 (Homo sapiens, UniProt A4D1P6); SPR dose-response titration; concentration not given, 1:1 binding model): 121% and 116%

C=C1CCN([C@H](CC(C)C)C(=O)NCc2ccc(Cl)c(Cl)c2)S(=O)(=O)c2ccccc21
kinase activity (DAPK1 (Homo sapiens, UniProt P53355); enzyme activity, inhibitor, ADP-Glo; 100 µM): no effect

Brc1c(Br)c(Br)c2[nH]cnc2c1Br
inhibition (Genome polyprotein NS3 helicase domain; DNA binding, inhibitor; hepatitis C virus; 100 µM, with: Cy5-dT15 DNA): 0%

CCOc1ccc2c(C(F)(F)F)cc(=O)oc2c1
Km (cytochrome P450 2B4 F297A (rabbit); O-deethylation, substrate): 20.4 ± 3.1 µM

CCCc1cc(=O)oc2cc(OCc3cc(=O)c(O)co3)ccc12
α-Helix content (PPO3 (Agaricus bisporus, UniProt C7FF04); secondary structure of tyrosinase, CD spectroscopy; molar ratio 1:1): 33.7%

NC(=O)c1cccc(N)c1
inhibition (Genome polyprotein NS3 helicase domain; DNA binding, inhibitor; hepatitis C virus; 100 µM, with: Cy5-dT15 DNA): 0%

COCCOC(=O)NC1CCN(c2ncnc3c2nc(-c2ccccc2Cl)n3-c2ccc(Cl)cc2)CC1
Ke (CNR1 (Homo sapiens, UniProt P21554); antagonist, FLIPR calcium mobilisation; CHO-K1 expressing CNR1 and Gαq16; with: CP55940): 6 nM

COC(=O)c1sc(-c2cccs2)cc1NC(=O)/C=C/C(=O)O
affinity ratio (FABP5 (Homo sapiens, UniProt Q01469); 1,8-ANS displacement; relative to: FABP4 over FABP3): 5 to 15 fold

CC(C)(O)c1ccc(-c2nc3cc(NC(=O)c4ccc(-c5ccccc5)nc4)ccc3c(=O)[nH]2)cc1
selectivity ratio (TNKS2 (Homo sapiens, UniProt Q9H2K2); PARylation, inhibitor, biochemical PARylation; relative to: TNKS1 IC50 over TNKS2 IC50): 49.6

Cc1ccc(O)c(N=Nc2ccccc2)n1
inhibition (Genome polyprotein NS3 helicase domain; DNA binding, inhibitor; hepatitis C virus; 100 µM, with: Cy5-dT15 DNA): 1%

O=C(COP(=O)(O)O)[C@@H](O)[C@H](O)[C@H](O)COP(=O)(O)O
enzyme activity (Phosphoglycerate mutase 1 (Homo sapiens, UniProt P18669); activator; 0.625 mM, wild-type enzyme, unit not given; relative to no compound): 3.83 and 3.51 and 3.11

CC[C@H](C)[C@H](NC(=O)[C@H](CCC(=O)O)NC(=O)[C@H](CCC(=O)O)NC(=O)[C@@H]1CCCN1C(=O)[C@H](CC(=O)O)NC(=O)[C@H](C)NC(=O)[C@H](CCC(N)=O)NC(=O)[C@@H](NC(=O)[C@H](C)NC(=O)[C@@H](NC(=O)[C@H](CO)NC(=O)[C@@H](NC(=O)[C@H](CCCCN)NC(=O)[C@@H](N)Cc1ccc(O)cc1)[C@@H](C)O)C(C)C)[C@@H](C)O)C(=O)N[C@H](C(=O)N[C@H](C(=O)N[C@@H](CC(C)C)C(=O)N[C@@H](CC(=O)O)C(=O)N[C@@H](CC(=O)O)C(=O)N[C@@H](CC(=O)O)C(=O)N[C@@H](CC(=O)O)C(=O)O)C(C)C)[C@@H](C)CC
enthalpy change (ΔH) (Small ubiquitin-related modifier 2 (Homo sapiens, UniProt P61956, C48A); isothermal titration calorimetry; concentration not given, pH 7.4, SUMO2 construct): 2.12 ± 0.23 kcal/mol

CCC1(c2ccccc2)C(=O)NCNC1=O
inhibition (Genome polyprotein NS3 helicase domain; DNA binding, inhibitor; hepatitis C virus; 100 µM, with: Cy5-dT15 DNA): 1%

N#CC1CCN(C(=O)c2ccc(NS(=O)(=O)c3ccc4c(c3)OCCO4)cc2)CC1
binding (WD repeat-containing protein 91 WD40 domain, residues 392–747; SPR; 45 µM): 0% and -11%

CC(=O)Nc1ccc(O)cc1
chemical shift change (BRD4 (Homo sapiens, UniProt O60885); 19F NMR, refers to: tyrosine 97; 48 µM; relative to: free protein): -0.064 ppm

O=C(NC1CCCS(=O)(=O)c2ccccc21)c1ccc2nc(O)cnc2c1 (stereo not drawn)
SPR response (WD repeat-containing protein 91 (Homo sapiens, UniProt A4D1P6); binding, SPR steady state; 7.5 µM): 28.6 RU

CCCN1C[C@H](CSC)C[C@@H]2c3cccc4[nH]cc(c34)C[C@H]21
potentiation (Glutamate receptor 2 (Homo sapiens, UniProt P42262); ion current, positive allosteric modulator, SyncroPatch patch clamp; HEK293; 10 µM): 96%

N[C@@H](CC(=O)O)C(=O)O
product formation (N-alpha-acetyltransferase 80 (NAA80, Homo sapiens, UniProt Q93015); substrate, DTNB; 2 mM, 30 min, 37 °C, with: acetyl-CoA 500 µM): 0.66 µM

C=CC(=O)N1CCC(COCC(=O)N2CCN(c3nc(-c4cnc(N)nc4C(F)F)nc(N4CCOC[C@@H]4C)n3)CC2)CC1
remaining binding (RIOK3 (Homo sapiens, UniProt O14730); KINOMEscan; 1 µM): 100%

O=C(O)[C@@H]1CN(C(=O)c2cc(-c3ccccc3)c[nH]2)C[C@H]1c1ccc(Cl)cc1
SPR response (WD repeat-containing protein 91 WD40 domain, residues 392–747; binding, SPR single-concentration screen; 45 µM): 12.4 RU and 17.3 RU

Oc1cc(O)c2c(c1)O[C@H](c1cc(O)c(O)c(O)c1)[C@@H](O)C2
selectivity ratio (ESR1; array formation; PRL-HeLa; relative to: EC50 ERβ over EC50 ERα): 1.25

COc1cc(/C=C/c2cc(/C=C/c3ccc(O)c(OC)c3)n(-c3cccc([N+](=O)[O-])c3)n2)ccc1O
ΔG (haemin; binding, isothermal titration calorimetry; pH 7.4, 37 °C): -9.4 ± 0.65 kcal/mol

NC/C(=C\F)COc1cccc(Cn2c(=S)[nH]c(=O)c3[nH]cnc32)c1
H2O2 concentration (Myeloperoxidase (MPO, Homo sapiens, UniProt P05164); H2O2 consumption, inhibitor, H2O2 electrode; 0.028 µM, 0.1 s): -0.803 µM

COc1ccc(-c2oc3c(CC=C(C)C)c(O[C@@H]4O[C@H](CO)[C@@H](O)[C@H](O)[C@H]4O)cc(O)c3c(=O)c2O[C@@H]2O[C@@H](C)[C@H](O)[C@@H](O)[C@H]2O[C@@H]2O[C@@H](C)[C@H](O)[C@@H](O)[C@H]2O)cc1
selectivity ratio (ESR1; array formation; PRL-HeLa; relative to: EC50 ERβ over EC50 ERα): 1.39

CC1=C(C(=O)O)N2C(=O)[C@@H](NC(=O)[C@H](N)C3=CCC=CC3)[C@H]2SC1
inhibition (Genome polyprotein NS3 helicase domain; DNA binding, inhibitor; hepatitis C virus; 100 µM, with: Cy5-dT15 DNA): 0%

O=C(O)/C=C/c1ccc(O)c(O)c1
protein level (Keap1 (Rattus norvegicus, UniProt P57790); western blot; H9c2; 120 µM): inhibited

COc1cc(Cc2cnc(N)nc2N)cc(OC)c1OC
inhibition (Genome polyprotein NS3 helicase domain; 100 µM): 1%

Nc1ncnc2c1ncn2[C@@H]1O[C@H](COP(=O)(O)CP(=O)(O)OP(=O)(O)O)[C@@H](O)[C@H]1O
calcium influx (P2X purinoceptor 1 (P2RX1, Homo sapiens, UniProt P51575, D170A); calcium influx; 100 µM; relative to: ionomycin response): 91.8% and 99.1% and 92.7%

A few entries again:
N[C@@H](CC(=O)O)C(=O)O
product formation (N-alpha-acetyltransferase 80 (NAA80, Homo sapiens, UniProt Q93015); substrate, DTNB; 2 mM, 30 min, 37 °C, with: acetyl-CoA 500 µM): 0.66 µM

C=CC(=O)N1CCC(COCC(=O)N2CCN(c3nc(-c4cnc(N)nc4C(F)F)nc(N4CCOC[C@@H]4C)n3)CC2)CC1
remaining binding (RIOK3 (Homo sapiens, UniProt O14730); KINOMEscan; 1 µM): 100%

O=C(O)[C@@H]1CN(C(=O)c2cc(-c3ccccc3)c[nH]2)C[C@H]1c1ccc(Cl)cc1
SPR response (WD repeat-containing protein 91 WD40 domain, residues 392–747; binding, SPR single-concentration screen; 45 µM): 12.4 RU and 17.3 RU
